Results gathered from unrelated publications.
Protocols differ between the studies behind these lines. ± gives the spread as reported.
Target: Cytochrome P450 2C9 (CYP2C9, Homo sapiens, UniProt P11712)
UniProt P11712, sequence (whole entry, looked up): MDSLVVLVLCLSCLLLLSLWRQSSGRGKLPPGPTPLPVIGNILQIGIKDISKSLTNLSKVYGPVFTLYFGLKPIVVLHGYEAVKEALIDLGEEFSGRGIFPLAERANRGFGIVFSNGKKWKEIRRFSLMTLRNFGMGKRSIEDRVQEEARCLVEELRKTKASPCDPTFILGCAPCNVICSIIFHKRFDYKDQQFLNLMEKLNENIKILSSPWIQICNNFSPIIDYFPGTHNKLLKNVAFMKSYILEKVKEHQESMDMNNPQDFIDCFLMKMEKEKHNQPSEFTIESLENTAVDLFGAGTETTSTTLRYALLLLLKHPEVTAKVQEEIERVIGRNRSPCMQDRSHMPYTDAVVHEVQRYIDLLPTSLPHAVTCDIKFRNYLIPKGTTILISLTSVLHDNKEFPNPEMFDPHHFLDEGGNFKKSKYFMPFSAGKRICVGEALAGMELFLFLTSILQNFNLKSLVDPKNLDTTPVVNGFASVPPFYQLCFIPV

Structure (SMILES) | assay | system | setting | IC50 [µM]
CC(C)(O)c1ccccc1CC[C@H](c1cccc(/C=C/c2ccc3ccc(Cl)cc3n2)c1)[S+]([O-])CC1(CC(=O)O)CC1 (stereo partly shown) | inhibitor | human liver microsomes | pH 7.4, added: diclofenac | 3.61
COc1ccc2nc(C)cc(OCC(=O)Nc3cc(C)cc(C)c3)c2c1 | inhibitor | – | – | 2.8
C[C@H](NCc1ccc(-c2ccc(C(F)(F)F)cc2)cc1)C(N)=O | enzyme activity, inhibitor, luciferase | – | pH 7.4 | > 10
COc1ccc(F)cc1S(=O)(=O)Nc1cnc2c(c1)C(=O)NCCO2 | enzyme activity, inhibitor | human, liver microsomes | with preincubation | > 100
CCC1CN2CCc3c([nH]c4cccc(OC)c34)[C@@H]2CC1/C(=C\OC)C(=O)OC (stereo partly shown) | enzyme activity, inhibitor | – | 30 min, pH 7.4 | 9.7 ± 4.8
Cc1ccc(N2CC3CCC(C2)N3C)cc1C(=O)N[C@H](C)c1cc(-c2cnn(C)c2)nc2ccccc12 | enzyme activity | – | – | > 50
CC(C)(O)c1ccccc1CC[C@H](c1cccc(/C=C/c2ccc3ccc(Cl)cc3n2)c1)S(=O)(=O)CC1(CC(=O)O)CC1 | inhibitor | human liver microsomes | pH 7.4, added: diclofenac | 2.15
c1ccc(C2(CCNC3CCC4(SCCS4)c4ccccc43)CCOC3(CCCC3)C2)nc1 (stereo not shown) | enzyme activity, inhibitor | human, liver microsomes | – | 34
Cc1ccc2nc(C)c(C(=O)NCc3cccs3)n2c1 | inhibitor | – | – | 7.6
COC(=O)c1ccc2c(c1)NC(=O)/C2=C(\Nc1ccc2c(c1)CCN2C(=O)CN1CCOCC1)c1ccccc1 | – | – | 10 min, added: diclofenac 5 µM | 35.4
Cc1cccc(-c2nc(Nc3ccncn3)c3c(C)csc3n2)n1 | inhibitor | – | – | 17
CCCCCc1cc(O)c2c(c1)OC(C)(C)C1CCC(C(=O)OC3OC(C(=O)O)C(O)C(O)C3O)=CC21 (stereo not shown) | inhibitor | – | 30 min preincubation, added: NADPH | 15 ± 2.7
COc1ccc(CCNc2cc(-c3ccccc3)nc3ncnn23)cc1 | – | – | – | 1.6
C(#Cc1cncc(OC[C@@H]2CCN2)c1)c1ccccc1 | enzyme activity, inhibitor | MFC | – | 5.11
c1cc2c(s1)CCOC21CCN(Cc2ccc3c(c2)OCCO3)CC1 | inhibitor | – | – | 48
CCn1ccc(-c2cc(-c3cnn(C)c3)cc([C@@H](C)NC(=O)c3cc(OCCN(C)C)ccc3C)c2)n1 | enzyme activity, inhibitor | pooled human liver microsomes | 10 (unit not given) | > 50

Excerpt of the above:
Structure (SMILES) | assay | system | setting | IC50 [µM]
CCn1ccc(-c2cc(-c3cnn(C)c3)cc([C@@H](C)NC(=O)c3cc(OCCN(C)C)ccc3C)c2)n1 | enzyme activity, inhibitor | pooled human liver microsomes | 10 (unit not given) | > 50
